Measurements of several laboratories.
Each line is one published result; not all experiments were run side by side. ± marks the error that the study gave.

CC(=O)N[C@@H](CS)C(=O)O  IC50 (Leishmania tarentolae; cell viability, resazurin; promastigotes, compound alone): > 600 µM
CCCCCOc1ccc(-c2nc(N)[nH]c2C(F)(F)F)cc1  IC50 (Mycolicibacterium smegmatis; biofilm): < 10 µM
CCOC(=O)c1nc2ccccc2c(=O)n1Cc1cn(-c2ccc(Cl)cc2)nn1  IC50 (Candida tropicalis; microbial growth, broth dilution; ATCC750; 24 h): 250 µg/mL
CCCCOc1ccc(-c2c[nH]c(N)n2)cc1  IC50 (Mycolicibacterium smegmatis; biofilm formation, crystal violet): 18.7 µM
Cc1ccc(Nc2nc(-c3cc(C(=O)Nc4ccccc4)no3)co2)cc1  IC50 (Mycobacteroides abscessus; Bamboo; 72 h): > 100 µM
CCCCc1ccc(-c2c[nH]c(N)n2)cc1  IC50 (Mycolicibacterium smegmatis; biofilm formation, crystal violet): 19.8 µM
OC(Cn1cncn1)(Cn1cncn1)c1ccc(F)cc1F  IC50 (Candida tropicalis; microbial growth, broth dilution; ATCC750; 24 h): 8.5 µg/mL
Cc1ccc(C(=O)N(C(=O)c2ccc(C)cc2)C(=S)N2N=C(c3ccc(Cl)cc3)CC2c2ccc(F)cc2)cc1 (stereo not shown)  IC50 (Artemia; cytotoxicity; 24 h): 142 ± 8.1 µM
CC(C)[C@H](NC(=O)[C@@H]1CCCN1C(=O)[C@H](CCCNC(=N)N)NC(=O)[C@H](CS)NC(=O)[C@H](Cc1c[nH]c2ccccc12)NC(=O)[C@H](CCCNC(=N)N)NC(=O)[C@@H](Cc1ccccc1)NC(=O)[C@H](Cc1c[nH]cn1)NC(=O)[C@H](CCC(=O)O)NC(=O)[C@H](CS)NC(=O)[C@H](CS)NC(=O)[C@H](CCCNC(=N)N)NC(=O)[C@@H]1CC(=O)N[C@@H](CCCNC(=N)N)C(=O)N[C@@H](C)C(=O)N[C@@H](CC(=O)O)C(=O)N[C@H](Cc2ccc(O)cc2)C(=O)N1)C(N)=O [technetium-99m labelled]  tissue uptake (C57 mouse, urinary bladder; intravenous, 0.037 MBq, 24 h): 91.5 ± 1.86 %ID
Cc1ccc(Nc2nc(-c3cc(C(=O)Nc4cccc(O)c4)no3)cs2)cc1  IC50 (Mycobacteroides abscessus; Bamboo; 72 h): > 100 µM
c1ccc2[nH]c(-c3ccsc3)cc2c1  viability (HEK293; cell growth or viability; 50 µM): 76%
CC(C)=CCC/C(C)=C/CNCCNC1C2CC3CC(C2)CC1C3 (stereo not shown)  IC50 (Mycobacterium tuberculosis; growth; H37Rv): 1 µM
O=c1c(O)c(-c2cc(O)c(O)c(O)c2)oc2cc(O)cc(O)c12  IC50 (human alphaherpesvirus 1; viral replication; Vero, F; 24 h): 2.2 ± 0.3 µM
chromium mesoporphyrin  IC50 (Leishmania tarentolae; resazurin viability; promastigotes): 58.6 ± 16.4 µM
CCOC(=O)c1nc2ccccc2c(=O)n1Cc1cn(-c2ccccc2F)nn1  IC50 (Candida tropicalis; microbial growth, broth dilution; ATCC750; 24 h): 87.1 µg/mL
CCCOc1ccc(-c2c[nH]c(N)n2)cc1  IC50 (Mycolicibacterium smegmatis; biofilm formation, crystal violet): 20.9 µM
C/C=C1\NC(=O)[C@H]2CSSCC/C=C/[C@H](CC(=O)N[C@H](C(C)C)C(=O)N2)OC(=O)[C@H](C(C)C)NC1=O  IC50 (Schistosoma mansoni; worm pairing and egg production; adult worms): ~10 µM
C#C[C@]1(COP(=O)(O)OP(=O)(O)OP(=O)(O)O)O[C@@H](n2cnc3c(N)nc(F)nc32)C[C@@H]1O  half-life (human PBMC tumour model; host not given, plasma; oral, 400 mg, single dose, fasted): 160 h
CN(C)CCCn1c(=O)c2ccc3c(=O)n(CCCN(C)C)c(=O)c4c5[nH]c6ccccc6[nH]c5c(c1=O)c2c34  IC50 (HIV-1; viral replication, LTR luciferase reporter; TZM-bl, NL4-3; 48 h): < 0.025 µM
C[C@H]1O[C@@H](O[C@H]2[C@@H](O)C[C@H](O[C@H]3[C@@H](O)C[C@H](O[C@H]4CC[C@@]5(C)[C@H](CC[C@@H]6[C@@H]5C[C@@H](O)[C@]5(C)[C@@H](C7=CC(=O)OC7)CC[C@]65O)C4)O[C@@H]3C)O[C@@H]2C)C[C@H](O)[C@@H]1O  IC50 (transmissible gastroenteritis virus; viral replication, immunofluorescence; ST cells; 6 h post-infection, pretreated 1 h): 0.615 ± 0.12 µM
CCOC(=O)c1nc2ccccc2c(=O)n1Cc1cn(-c2cccc([N+](=O)[O-])c2)nn1  IC50 (Candida tropicalis; microbial growth, broth dilution; ATCC750; 24 h): 117 µg/mL
Cc1ccc(C(=O)N(C(=O)c2ccc(C)cc2)C(=S)N2N=C(c3ccc(C)cc3)CC2c2ccc(Cl)cc2)cc1 (stereo not shown)  IC50 (Artemia; cytotoxicity; 24 h): 120 ± 12.2 µM
Cc1ccc(-c2cc3ccccc3[nH]2)cc1  viability (HEK293; cell growth or viability; 50 µM): 86.6%
CCOCCOc1ccc(-c2c[nH]c(N)n2)cc1  IC50 (Mycolicibacterium smegmatis; biofilm formation, crystal violet): > 50 µM
Cc1ccc(NC(=O)c2ccc(CN3CCN(C)CC3)cc2)cc1Nc1nccc(-c2cncc(-c3oncc3C)c2)n1  PGI-S score (mild-to-moderate Parkinson's disease patients; oral, 50 mg once daily, day 7, on anti-Parkinson medication; direction not given): 2.2 ± 0.7
Cc1ccc(S(=O)(=O)/C=C/C#N)cc1  IC50 (HeLa expressing ODD-Luc; ODD-Luc degradation, inhibitor, cycloheximide chase luciferase): 0.6 ± 0.08 µM
Cc1ccc(Nc2nc(-c3cc(C(=O)Nc4cccc(C)c4)no3)cs2)cc1  IC50 (Mycobacteroides abscessus; Bamboo; 72 h): > 100 µM
N=C(N)c1ccc(OCCCCCOc2ccc(C(=N)N)cc2)cc1  IC50 (Leishmania tarentolae; viability, resazurin; promastigotes, YEM/PBS; 48 h, 26 °C, together with: 6 µM hemin): 0.81 ± 0.17 µM
Cc1ccc(Nc2nc(-c3cc(C(=O)Nc4ccccn4)no3)cs2)cc1O  IC50 (Mycobacteroides abscessus; Bamboo; 72 h): > 100 µM
CCOC(=O)c1nc2ccccc2c(=O)n1Cc1cn(-c2ccccc2C)nn1  IC50 (Candida tropicalis; microbial growth, broth dilution; ATCC750; 24 h): 191 µg/mL
Cc1ccc(Nc2nc(-c3cc(C(=O)Nc4ccccc4C)no3)cs2)cc1  IC50 (Mycobacteroides abscessus; Bamboo; 72 h): > 100 µM
Nc1nc2c(ncn2COCCO)c(=O)[nH]1  IC50 (human alphaherpesvirus 1; viral GFP expression, live cell imaging; primary fibroblasts, six donors, K26, GFP-expressing; peak infection time): 0.4 ± 0.2 µM
CCCCOc1ccc(-c2nc(N)[nH]c2C(F)(F)F)cc1  IC50 (Mycolicibacterium smegmatis; biofilm formation, crystal violet): 15.4 µM
O=C(O)c1nc2ccccc2c(=O)n1Cc1cn(-c2cccc([N+](=O)[O-])c2)nn1  IC50 (Candida tropicalis; microbial growth, broth dilution; ATCC750; 24 h): 521 µg/mL
O=C(Nc1ccccn1)c1cc(-c2csc(Nc3ccccc3)n2)on1  IC50 (Mycobacteroides abscessus; Bamboo; 72 h): > 100 µM
CCOC(=O)c1nc2ccccc2c(=O)n1Cc1cn(-c2ccccc2[N+](=O)[O-])nn1  IC50 (Candida tropicalis; microbial growth, broth dilution; ATCC750; 24 h): 238 µg/mL
CC[n+]1c(/C=C/N(C)c2ccccc2)n(-c2ccccc2)c2ccc(-c3nc4ccccc4s3)cc21  IC50 (HeLa expressing ODD-Luc; ODD-Luc degradation, inhibitor, cycloheximide chase luciferase): 5 ± 0.5 µM
Cc1ccc(C(=O)N(C(=O)c2ccc(C)cc2)C(=S)N2N=C(c3ccc(Br)cc3)CC2c2cccc(F)c2)cc1 (stereo not shown)  IC50 (Artemia; cytotoxicity; 24 h): 103 ± 7.9 µM
CCOC(=O)c1nc2ccccc2c(=O)n1Cc1cn(-c2ccc([N+](=O)[O-])cc2)nn1  IC50 (Candida tropicalis; microbial growth, broth dilution; ATCC750; 24 h): 214 µg/mL
CC(C)[C@H](NC(=O)[C@@H]1CCCN1C(=O)[C@H](CCCNC(=N)N)NC(=O)[C@H](CS)NC(=O)[C@H](Cc1c[nH]c2ccccc12)NC(=O)[C@H](CCCNC(=N)N)NC(=O)[C@@H](Cc1ccccc1)NC(=O)[C@H](Cc1c[nH]cn1)NC(=O)[C@H](CCC(=O)O)NC(=O)[C@H](CS)NC(=O)[C@H](CS)NC(=O)[C@H](CCCCN)NC(=O)[C@@H]1CC(=O)N[C@@H](CCCNC(=N)N)C(=O)N[C@@H](C)C(=O)N[C@@H](CC(=O)O)C(=O)N[C@H](Cc2ccc(O)cc2)C(=O)N1)C(N)=O [technetium-99m labelled]  tissue uptake (C57 mice, liver; intravenous, 0.037 MBq, 0.5 h): 2.66 ± 0.17 %ID/g

For quick reference, copied from above:
Cc1ccc(Nc2nc(-c3cc(C(=O)Nc4cccc(O)c4)no3)cs2)cc1  IC50 (Mycobacteroides abscessus; Bamboo; 72 h): > 100 µM
N=C(N)c1ccc(OCCCCCOc2ccc(C(=N)N)cc2)cc1  IC50 (Leishmania tarentolae; viability, resazurin; promastigotes, YEM/PBS; 48 h, 26 °C, together with: 6 µM hemin): 0.81 ± 0.17 µM
CCCOc1ccc(-c2c[nH]c(N)n2)cc1  IC50 (Mycolicibacterium smegmatis; biofilm formation, crystal violet): 20.9 µM
CCCCCOc1ccc(-c2nc(N)[nH]c2C(F)(F)F)cc1  IC50 (Mycolicibacterium smegmatis; biofilm): < 10 µM
c1ccc2[nH]c(-c3ccsc3)cc2c1  viability (HEK293; cell growth or viability; 50 µM): 76%
C/C=C1\NC(=O)[C@H]2CSSCC/C=C/[C@H](CC(=O)N[C@H](C(C)C)C(=O)N2)OC(=O)[C@H](C(C)C)NC1=O  IC50 (Schistosoma mansoni; worm pairing and egg production; adult worms): ~10 µM
